Assay results collected from several papers.
A part holds a random share of what one study measured.

Series 1
Target: RNA binding protein fox-1 homolog 2, RRM domain, GST-SBP tag (RBFOX2, Homo sapiens, UniProt O43251-10, residues 100-194)
Technique: RNA Bind-n-Seq
Molecule type: RNA
Matrix: in vitro
Concentration: 365 nM
Setting: natural RNA segment, single round, ends assumed
Reference: no-protein control
Reading: higher = stronger binding
Shared flanks, not repeated: GGGAGUUCUACAGUCCGACGAUC … UGGAAUUCUCGGGUGCCAA
Target sequence (chain): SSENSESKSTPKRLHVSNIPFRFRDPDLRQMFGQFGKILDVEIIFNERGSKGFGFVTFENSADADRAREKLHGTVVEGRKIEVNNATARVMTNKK
Oligonucleotide | RBNS enrichment (R)
GACUUUGGGGGCAGAAAACCCUAUAAGUAUAACCAAGAGGAAAGUUUUUCACUAAGAAUUUAGUUAAAUUGUCUUUACUAUACAGCAAGAAAUCUCUUUAGAAGAAACUU | 0.519
UACCUGCUUCUGACUUUAAGCAAAAGGAAAGAAAACUACCUUUUUAUAUAAUGCACAACUGUUGAUGACUGGCUGUAUAGUUUUUAGUCUCUGUAGCUAAUUUAAUUUGC | 0.408
UUUUAUGAUGGUUAGACUUCUGGACAUGGACUCAUCUUGUGAGAAGAUUUGAAUAAUGACCAAUUCUAAAAUCAAUAACGUUCCAUUUGCUUAUGUAGCACUUCUGGACC | 0.316
UGCAGCCCUCUCAGAACAGAGGGGUAGGGAGGGUGCACCAGUGCACCAGGAAGGCUGUGUGGGUCUGGAGCCCACGUCCCACCUCCACACCCUUGGCUUGGGCCCAUGCC | 0.87
AAGGUGGAGAGAGCUGGCAACUACUGUGAGCAAGUCCCCUAGCCCCUGACCAGCCUCCUCCCAUGACUGGUGACUGUUUAAUGAGCUGUGCAUCCCCCACAAAAACAUGA | 0.432
UCUCUCUACCCAGUGGGCGCUGCUGUUAAGGGGCCAUCUGCUGAAAACGUUUCCCCAGGCCCUGCUGUCUGCCAGGAGUGCCAAGUGUCAACUGUUUACACACAAACUGC | 0.342
CCAGCUAAUUUCUGUAUUUUAGUAGAGACAAGGUUUCACCAUGUUGGCCAGGCUGGUCUCGAACUCCUGGCCUCAAGUGAUCCACCUGCCUUGGCCUCCCAAAGUGCUCC | 0.319
GUAAUUGGUUUUUGAGAAACAUUAGUAUAAAGCUUGCCCUUGUUGUGUGGAAGAAGCCAUUUUGUACUGCUUUAAAGUUAGACUAAUAUUCUCAGCACGGGUGUAUGGGG | 9.95
ACUCACUCUCAUUUGUAAGCAGUCCACAUAGUAGACAAUGGGUUUUCCAAGCUGGGCAAGGUACAUUUAAUCAGUAAAUCAGUUUCACAUCAUGUAUUGUGAUGUUUCAA | 0.517
UCUGCAGGCAUCUCUGUCUGAGAGCAGUGGGGGCUGCCCUCUGUAGAGCUGUGAGAGCAGUGGGGGCUGCCCUCUGUAGAGCUGUGAGAGCAGUGGGGGGCUGCCCUCUG | 0.578
CUGCUUCUGUAACCAAGGUCUGGCAGAGUAGCGAUUCCCUGCGUGUUCAGGAAGGGCCCAUUGUGUAUACCUGCCUCUUGUCACUGGCUUGGUGCCAGUCCCUCAGUCCC | 0.715
AAGUAGAAAAGAAUUGUUUACUAUUUGACCCACAUAUUAAACAUGCUUUUUUUCUCUAUUAUGGCAAAUAUUGAAUAUUCAUGAACAUAACUUGCUAAACAAGUAUUCCA | 0.625

Series 2
Target: Sal-like protein 4, full length isoform A (SALL4, Homo sapiens, UniProt Q9UJQ4, residues 1-1053)
Sequence of UniProt Q9UJQ4 (whole entry, looked up): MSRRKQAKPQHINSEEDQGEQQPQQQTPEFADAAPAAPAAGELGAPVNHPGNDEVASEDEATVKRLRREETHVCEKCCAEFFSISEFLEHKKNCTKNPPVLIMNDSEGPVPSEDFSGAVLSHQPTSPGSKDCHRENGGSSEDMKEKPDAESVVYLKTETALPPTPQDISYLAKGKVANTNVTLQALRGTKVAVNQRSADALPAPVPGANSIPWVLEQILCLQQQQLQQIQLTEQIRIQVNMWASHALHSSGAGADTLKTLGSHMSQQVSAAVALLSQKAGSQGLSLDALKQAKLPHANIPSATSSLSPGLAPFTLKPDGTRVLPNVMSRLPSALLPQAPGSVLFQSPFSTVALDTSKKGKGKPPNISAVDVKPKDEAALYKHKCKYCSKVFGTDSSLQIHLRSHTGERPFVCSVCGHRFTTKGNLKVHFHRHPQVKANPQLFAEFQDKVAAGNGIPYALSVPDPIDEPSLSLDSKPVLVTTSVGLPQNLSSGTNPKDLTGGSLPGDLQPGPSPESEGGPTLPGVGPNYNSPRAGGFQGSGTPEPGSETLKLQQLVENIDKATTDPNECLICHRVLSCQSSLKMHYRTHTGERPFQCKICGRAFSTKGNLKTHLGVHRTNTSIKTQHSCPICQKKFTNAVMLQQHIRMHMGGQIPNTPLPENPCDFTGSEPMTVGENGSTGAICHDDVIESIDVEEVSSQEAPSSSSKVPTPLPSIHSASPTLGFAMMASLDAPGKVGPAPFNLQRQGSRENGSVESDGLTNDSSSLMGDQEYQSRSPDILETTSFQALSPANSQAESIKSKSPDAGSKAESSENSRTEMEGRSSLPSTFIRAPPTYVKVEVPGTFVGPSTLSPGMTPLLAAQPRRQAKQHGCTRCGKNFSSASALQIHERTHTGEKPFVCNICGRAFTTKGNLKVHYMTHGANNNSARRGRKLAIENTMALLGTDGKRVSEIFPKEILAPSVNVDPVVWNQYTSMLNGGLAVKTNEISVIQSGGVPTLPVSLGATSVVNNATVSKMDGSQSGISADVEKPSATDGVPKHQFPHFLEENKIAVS
Technique: universal PBM
Molecule type: double-stranded DNA, one strand shown
Matrix: in vitro
Concentration: 600 nM
Setting: 8-mer, flanks averaged, mean of replicates
Reading: higher = stronger binding
Oligonucleotide | E-score
GGTAAAAA | 0.154
GGTGTTGA | -0.0856
CATAATGA | 0.302
CACAATAC | 0.0551
AAGACGGA | -0.0469
ATCCTAAG | -0.132
AGGTCATC | -0.136
AAACTAGG | -0.037
AAGCGGCT | -0.257
GACCGATC | -0.229
AGCTTATC | -0.0382
ACTTTCAC | 0.209
CTTTTCGC | 0.0212
AGTGAGGG | -0.152
ATTATTCG | 0.372
CGTTCCAC | -0.0674
AGGTCTTA | 0.0264

Series 3
Target: Histone acetyltransferase KAT6A, winged helix 2, GST fusion (KAT6A, Homo sapiens, UniProt Q92794, residues 85-181)
Technique: protein binding microarray
Molecule type: double-stranded DNA, one strand shown
Matrix: in vitro
Concentration: not given
Setting: 8-mer, flanks averaged, mean of 2 arrays, mostly near background
Reference: not given
Reading: higher = stronger binding
Residues (chain): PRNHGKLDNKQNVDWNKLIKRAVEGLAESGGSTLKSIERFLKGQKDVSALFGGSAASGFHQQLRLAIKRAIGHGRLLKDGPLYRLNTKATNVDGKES
Oligonucleotide | E-score
CCCATTTA | -0.0154
CCAGATGG | 0.158
CCCGGGTA | 0.117
GAATCCTC | -0.221
CAACTACG | -0.114
ACAAACGG | 0.109
ACATTCAT | -0.204
GGCTATAA | -0.0918
TAGGACAA | -0.115
AGATTCCG | 0.0907
TGCCTCCA | -0.0901
AGATTGTG | -0.139
ACGGTCAC | -0.103
CCAATCCA | 0.0746

Other studies, line by line
Molecule | target | test | test system | setting | scale | endpoint | value
PhoQ, residues 284 288 289 292 302 303 TTSMTC | PhoP, residues 12 14 15 18 19 TPLRH (Escherichia coli, UniProt P23836) | Sort-seq, item: YFP reporter | E. coli | PhoQ-PhoP variant library, together with: 10 µM Mg2+ | reference: high Mg2+ state, higher = stronger signaling | fold induction | 1.26

Some of these lines once more (series 1):
Oligonucleotide | RBNS enrichment (R)
UACCUGCUUCUGACUUUAAGCAAAAGGAAAGAAAACUACCUUUUUAUAUAAUGCACAACUGUUGAUGACUGGCUGUAUAGUUUUUAGUCUCUGUAGCUAAUUUAAUUUGC | 0.408
ACUCACUCUCAUUUGUAAGCAGUCCACAUAGUAGACAAUGGGUUUUCCAAGCUGGGCAAGGUACAUUUAAUCAGUAAAUCAGUUUCACAUCAUGUAUUGUGAUGUUUCAA | 0.517
AAGUAGAAAAGAAUUGUUUACUAUUUGACCCACAUAUUAAACAUGCUUUUUUUCUCUAUUAUGGCAAAUAUUGAAUAUUCAUGAACAUAACUUGCUAAACAAGUAUUCCA | 0.625
